# Measurements from different studies.
# Numbered parts are unrelated; each lists some results of a single study.

# Study 1
# Target: RING finger protein unkempt homolog, zinc fingers 1-6, GST-SBP tag (UNK, Homo sapiens, UniProt Q9C0B0, residues 30-357)
# Technique: RNA Bind-n-Seq
# Molecule type: RNA
# Medium: in vitro
# Concentration: not given
# Setting: RNA with constant flanks, human and mouse sites, ends assumed
# Baseline: input RNA pool
# Direction: higher = stronger binding
# Shared flanks, not repeated: GGGAGUUCUACAGUCCGACGAUC … CAACAGAGGAUUGAGCAUCA
# Construct (chain): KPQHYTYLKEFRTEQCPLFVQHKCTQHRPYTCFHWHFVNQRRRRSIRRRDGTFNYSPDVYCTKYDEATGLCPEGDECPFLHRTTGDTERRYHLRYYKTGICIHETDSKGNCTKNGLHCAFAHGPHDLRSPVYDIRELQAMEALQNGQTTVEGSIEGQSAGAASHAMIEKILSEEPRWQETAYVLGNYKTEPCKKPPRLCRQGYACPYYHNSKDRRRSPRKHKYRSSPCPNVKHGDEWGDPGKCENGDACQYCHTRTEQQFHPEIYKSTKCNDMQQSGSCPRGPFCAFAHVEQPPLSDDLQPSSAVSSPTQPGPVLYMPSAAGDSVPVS
Sequence,bound/input enrichment [ratio]
AUUUUUGAAUCAACAUCUUUUCCUUCUGUCCCUCCCUUUCUCCAUCUUUUGGUCACUACCCUCCAACUCUAGGAACAGGGGUGUAGAGGAGAAGCCCUAGGCUUGAGAUUUCAUCUGCUC,0.242
CUCACGGAACAUAACAUCUGUGAAAUCAAUGGACAGAAUGUCAUUGGAUUGAAGGACUCUCAAAUUGCAGACAUACUGUCAACAUCUGGGACUGUAGUUACUAUUACAAUCAUGCCUGCU,0.522
CAGAAGCCAGUUGUGCACCCCUCAGCACCUGCUCCGCUCCCCAAAGACUACGCUUUUACCUUCUUCGAUCCCAAUGACCCUGCGUGCCAGGAAAUUCUGUUUGACCCGAAGACCACCAUC,0.357
GUCUACCUUAACCUGGUGCUGGACUAUGUUCCGGAGACAGUGUACAGAGUCGCCAGACACUAUAGUCGAGCCAAGCAGACACUCCCUGUGAUCUAUGUCAAGUUGUAUAUGUAUCAGCUG,0.0725
UUUGACAAUGUGGGCCUUUCCCCAGAUGGCUACCUAUAUAAAUGGCUUGACAACAUUCUGGCUUGUCAAGAUUUACGAGUUCAUCAACUUGGCUGCGAAGUUGUUGUCUUGCUACUGGAA,0.142
UAUGAAGUAUUUCAGACCCAGUUGUAGAUCAUCACUCCGCCACUCUCUCCUUUAUUGCCUACUAGUUAUUUAAAUUGGACUUUUAAUAUCCUACCAGCUGCUCUUCAGACACACAUGGUG,17.2
UCUCUCUCCUGUCCUUUCUUUUCUUUCUCUCUCUCUUUCUUUCUUUCUUUCUUUCUUUCUUUUUUUUUAACUCCUCAUAUUAUGUUCAGACGCUCAUACUGUCAAGGUUUGUGUACAUUA,2.52

# Study 2
# Target: Phosphate system positive regulatory protein PHO4, full length, GST-tagged (PHO4, Saccharomyces cerevisiae, UniProt P07270, residues 1-312)
# Technique: competition protein-binding microarray
# Molecule type: double-stranded DNA, one strand shown
# Medium: in vitro
# Concentration: 2 µM
# Setting: whole 60-bp probe, lowest competitor level
# Together with: Cbf1 competitor, 0.05 µM
# Direction: higher = stronger binding
# Shared flanks, not repeated: … GTCTTGATTCGCTTGACGCTGCTG
# Construct (chain): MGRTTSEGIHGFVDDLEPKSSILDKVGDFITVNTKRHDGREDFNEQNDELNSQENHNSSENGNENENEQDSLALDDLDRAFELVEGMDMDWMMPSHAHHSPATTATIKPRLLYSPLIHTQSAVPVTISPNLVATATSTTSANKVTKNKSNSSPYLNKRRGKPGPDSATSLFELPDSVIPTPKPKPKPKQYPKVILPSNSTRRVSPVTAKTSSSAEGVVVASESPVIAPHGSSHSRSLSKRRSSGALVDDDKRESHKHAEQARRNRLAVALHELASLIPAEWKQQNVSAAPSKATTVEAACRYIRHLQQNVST
Sequence,fluorescence intensity
ATGGGCCGATAGTACCACCTGATCTTGAGTTGTTTT,4050 a.u.
GTCTTGTCTCATTGTCCCGTGGGTGTCCCCACTTCA,9590 a.u.
AAAGCGGTAATTTTTCACGTGAATTCACATATCTAT,8130 a.u.
TGCGCAACAACTTTTCACGTGCGATTATGTCTAGAA,14000 a.u.
GGATACCTCCGCCGTCATATGATAATAATGTTCGTT,3820 a.u.
AAAGCGGTAATTTGTGCCGTGGGTGCAGATATCTAT,4840 a.u.
CTTTCCCGATCTTGTCACAACACTTTAGCACATTTG,4600 a.u.
TATCCTAAATGCCATCACGATGATAAATCCTCCGCC,6530 a.u.
CTTTCCCGATCTTGGCCCGTGGGTGTAGCACATTTG,9040 a.u.
AACCTAAAACGACTTTGTGTGACGCCGAAGAGAAAG,4130 a.u.
TCAAAAAAGCCAAAAAGGGTGTGCCTGTAGATTGTG,6690 a.u.
CATACCCAACCTTTGCACGTGTTTTAAGATATTTGT,22000 a.u.
CGGGGTTAAGTTTGTGCTGTGGGTGGCTTGCAGCAG,5250 a.u.
AAATTACTAAGTTGTCACCCGACTTACCCCGTATGA,3310 a.u.

# Study 3
# Target: Hepatocyte nuclear factor 3-beta, forkhead domain (FOXA2, Homo sapiens, UniProt Q9Y261, residues 142-269)
# Technique: protein-binding microarray
# Molecule type: hairpin DNA
# Medium: in vitro
# Concentration: not given
# Setting: whole hairpin DNA, median over replicate spots
# Baseline: not given
# Direction: higher = stronger binding
# Target sequence (chain): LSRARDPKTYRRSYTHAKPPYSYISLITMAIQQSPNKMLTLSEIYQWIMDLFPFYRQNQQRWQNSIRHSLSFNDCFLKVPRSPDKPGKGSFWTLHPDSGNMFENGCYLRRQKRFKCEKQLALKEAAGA
Sequence,median fluorescence
GAGGCCATGGAAACAACGCCTCCTGGCGTTGTTTCCATGGCCTCACACTC,3150 a.u.
GAGGCCATGTCGCCAACGCCTCCTGGCGTTGGCGACATGGCCTCACACTC (5mC at 11),3190 a.u.
GAGGCCATGGAACCAACGCCTCCTGGCGTTGGTTCCATGGCCTCACACTC,3310 a.u.
GAGGCCATGTAACCACCGCCTCCTGGCGGTGGTTACATGGCCTCACACTC (5mC at 16),3230 a.u.
GAGGCCGTGCAAACAACGCCTCCTGGCGTTGTTTGCACGGCCTCACACTC (5mC at 38),3780 a.u.
GAGGCCATGCAAACACCGCCTCCTGGCGGTGTTTGCATGGCCTCACACTC (5mC at 16),3550 a.u.
GAGGCCACGTAAACAACGCCTCCTGGCGTTGTTTACGTGGCCTCACACTC (5mC at 8 36),3820 a.u.
GAGGCCACGCAAACAACGCCTCCTGGCGTTGTTTGCGTGGCCTCACACTC,3770 a.u.
GAGGCCCTGTAACCAACGCCTCCTGGCGTTGGTTACAGGGCCTCACACTC (5mC at 7),3010 a.u.
GAGGCCATGTAACCATCGCCTCCTGGCGATGGTTACATGGCCTCACACTC,3050 a.u.
GAGGCCATGCAACGAACGCCTCCTGGCGTTCGTTGCATGGCCTCACACTC (5mC at 13),3470 a.u.
GAGGCCATGCAAACACGGCCTCCTGGCCGTGTTTGCATGGCCTCACACTC (5mC at 28),3560 a.u.
GAGGCCATGCGACCAACGCCTCCTGGCGTTGGTCGCATGGCCTCACACTC (5mC at 10 34),3220 a.u.
GAGGCCATGCAAACATCGCCTCCTGGCGATGTTTGCATGGCCTCACACTC,3680 a.u.
GAGGCCATGCCAACAACGCCTCCTGGCGTTGTTGGCATGGCCTCACACTC,3170 a.u.
GAGGCCACGCAAACAACGCCTCCTGGCGTTGTTTGCGTGGCCTCACACTC (5mC at 8),3650 a.u.
GAGGCCATCGAACCAACGCCTCCTGGCGTTGGTTCGATGGCCTCACACTC (5mC at 9 35),3220 a.u.
GAGGCCATGTAACCTACGCCTCCTGGCGTAGGTTACATGGCCTCACACTC,3020 a.u.

# Study 4
# Target: Histone acetyltransferase KAT6A, winged helix 1, GST fusion (KAT6A, Homo sapiens, UniProt Q92794, residues 1-85)
# Technique: protein binding microarray
# Molecule type: double-stranded DNA, one strand shown
# Medium: in vitro
# Concentration: not given
# Setting: 8-mer, flanks averaged, mean of 2 arrays, mostly near background
# Baseline: not given
# Direction: higher = stronger binding
# Construct (chain): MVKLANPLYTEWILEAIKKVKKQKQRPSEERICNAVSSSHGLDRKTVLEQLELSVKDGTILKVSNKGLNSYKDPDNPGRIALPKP
Sequence,E-score
ACTGCAAT,-0.139
ACCGGCTA,0.209
ACCCCTAG,-0.177
AGCGTGGG,0.0423
GGGACATA,-0.138
GTGATCGA,-0.16
GCGTACAC,0.184
CCCGGGAG,0.282
CCCACCCA,-0.234
AGCGCTTC,0.335
GACGCCCC,0.167
GGATCCTA,-0.0545
AAACCCCT,-0.0919
AGCGCCCA,0.0592
CGACGGCG,0.472
ACTACGCC,0.115
TACTGCCA,-0.038
AAGTTTAG,-0.214

# Study 5
# Target: RNA binding protein fox-1 homolog 2, RRM domain, GST-SBP tag (RBFOX2, Homo sapiens, UniProt O43251-10, residues 100-194)
# Technique: RNA Bind-n-Seq
# Molecule type: RNA
# Medium: in vitro
# Concentration: 365 nM
# Setting: natural RNA segment, single round, ends assumed
# Baseline: no-protein control
# Direction: higher = stronger binding
# Shared flanks, not repeated: GGGAGUUCUACAGUCCGACGAUC … UGGAAUUCUCGGGUGCCAA
# Residues (chain): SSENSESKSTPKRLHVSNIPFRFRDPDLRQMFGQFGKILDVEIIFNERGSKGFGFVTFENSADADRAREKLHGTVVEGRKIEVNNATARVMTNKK
Sequence,RBNS enrichment (R)
UGAACUCCAGCCUUCCUUCCGUGGAGCUCGAGUGAGGUUUACGGAGGUGCCCAGAUUCCUUUCCCUUUAACGCGUGUAAAGUUCUGUGCAUUUGAUUGUAAACUGUACUC,0.305
AACUGUGACCUGAUCCCUACCCCACAUGCUGUCUCCUUUUCUUUGGGAGUUAGCAACAUUUGAGGAUGUUGUAGGUACUUUAUUACAUUUUUUUGUAGUUUAAAGAGCUU,0.213
UGUGUGCAUGACUAUGUGCUUAUCCACUUAAGACAAUAGGUAAAAGGGGAUCUGAGAAAUUAUGUAAUAGGGAGUGGGAAUAAAACUACUUAAUUCCUGUGGGCAGGUUA,5
AAAAAUAUAACUCAGAUUUCACUGUUAGGAAUAGUUCUGUUUGUGAGCAACUUACUUCCUUUCAUCUUACACAAUGAACCUUGUAAUUUAAUUAUGAUUUUCUCUUCAUA,0.735
GCGCAGGCGCUGUCUGGCUCAGCUGCCCCCUUGGGGUGGGCAGGGAGGACCAGACUGCUUGGGUGAUUGGGGUCCCCAGCCUAUUCCCUUUCUCUUGAGGGGAGGGUAGU,0.226
UGUAAGACAGGCGUGCUAGUGAGCAGUCGUGUGUGGCUCUGGACUCUGACCCCAGAGCUCUGAAGAAUGCUCUUAUCAGAAGAUAGGAAAUGAAAAUAUCCUUUUUUAAA,0.927
GCUUCUUUGUAGCAGGGUAAAUCGUCCUGUCAAAGGGAGUUGCUGGAAUAAUGGGCCAAACAUCUGGUCUUGCAUUGAAAUAGCAUUUCUUUGGGAUUGUGAAUAGAAUG,0.307
GAUCUGAAAAGGGCCACUGUUAGGCAAGACAGACAGUAUUGGAUAGGGUAAAGCAAGAAAACUCAAGCUGCAGCUGGACUGCAGGCUUAUUUUGCUUAAGUCAACAGUGC,0.406
CUGGAUAGCGAUUAUUUGUGGAAUUGUUGCACAUGCUCCUCUAUUGAAAGGGGUUUUUCCCUAGUCAAGCAUUUGGAGACACUUUUUGUAAAUGUGACUUUUAUGUCAGC,0.329
AUAAUGCUAGAUGAAGCUGUGAACCCCCCCCCCCCCUCCUGCUGAUAGAGCAGGGCAUGGGUGCUGGCCUCAGUGCUCAGCCUGCUCUUUAAUAAAGGUACCUCUUUUCU,1.15
UAGCUUUCUCUGGCAUUAGGGAGAGAGAACCCUGCUUGCUUCCACUUAACUCCUGGUGGAAGAGGGGCAGGCACGUUCGAAGCUUCUGGAUUCAUUUUUCCUCCACUUUC,0.396
UUGACGUCACACCCACAGGUGAAACAGCCCGAAGUCAAGGCCUUGCUAGUAAAUGGAGCUUUGUACAUAGUCAUUGUGAUGUCUUGGCUGCCCGGACACCACGUAAACAU,2.17
